Measurements pooled from the literature.
Protocols differ between the studies behind these lines. ± gives the spread as reported.
Urease: Urease (Canavalia ensiformis, UniProt P07374)
UniProt P07374, sequence (whole entry, looked up): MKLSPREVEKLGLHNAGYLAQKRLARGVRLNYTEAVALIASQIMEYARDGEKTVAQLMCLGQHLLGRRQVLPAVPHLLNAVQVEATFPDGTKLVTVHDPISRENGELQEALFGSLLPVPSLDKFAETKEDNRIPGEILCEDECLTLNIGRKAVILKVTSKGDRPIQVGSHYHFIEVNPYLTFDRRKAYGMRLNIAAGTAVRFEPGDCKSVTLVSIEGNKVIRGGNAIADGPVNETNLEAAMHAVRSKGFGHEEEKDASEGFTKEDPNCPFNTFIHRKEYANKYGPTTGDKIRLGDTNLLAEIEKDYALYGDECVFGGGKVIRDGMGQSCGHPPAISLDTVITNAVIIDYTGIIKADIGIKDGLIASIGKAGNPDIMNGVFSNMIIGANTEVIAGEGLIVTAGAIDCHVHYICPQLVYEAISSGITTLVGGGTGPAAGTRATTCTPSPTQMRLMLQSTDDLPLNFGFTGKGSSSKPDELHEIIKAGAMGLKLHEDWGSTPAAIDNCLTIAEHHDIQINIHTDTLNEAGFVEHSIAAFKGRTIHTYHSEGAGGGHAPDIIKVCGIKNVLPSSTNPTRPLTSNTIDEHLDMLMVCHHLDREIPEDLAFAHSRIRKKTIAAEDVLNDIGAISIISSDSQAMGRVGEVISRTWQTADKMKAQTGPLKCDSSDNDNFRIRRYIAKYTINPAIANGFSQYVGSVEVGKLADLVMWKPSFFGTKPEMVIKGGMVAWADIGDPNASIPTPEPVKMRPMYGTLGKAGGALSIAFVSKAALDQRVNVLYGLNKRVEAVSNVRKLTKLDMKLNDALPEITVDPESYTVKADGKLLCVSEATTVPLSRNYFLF
crk3 with CYC6: crk3, with CYC6 (Leishmania mexicana, UniProt O15851)
SYK tandem SH2 domains: Tyrosine-protein kinase SYK, tandem SH2 domains (SYK, Homo sapiens, UniProt P43405)
PDE1C: Dual specificity calcium/calmodulin-dependent 3',5'-cyclic nucleotide phosphodiesterase 1C (PDE1C, Homo sapiens, UniProt Q14123)
UniProt Q14123, sequence (whole entry, looked up): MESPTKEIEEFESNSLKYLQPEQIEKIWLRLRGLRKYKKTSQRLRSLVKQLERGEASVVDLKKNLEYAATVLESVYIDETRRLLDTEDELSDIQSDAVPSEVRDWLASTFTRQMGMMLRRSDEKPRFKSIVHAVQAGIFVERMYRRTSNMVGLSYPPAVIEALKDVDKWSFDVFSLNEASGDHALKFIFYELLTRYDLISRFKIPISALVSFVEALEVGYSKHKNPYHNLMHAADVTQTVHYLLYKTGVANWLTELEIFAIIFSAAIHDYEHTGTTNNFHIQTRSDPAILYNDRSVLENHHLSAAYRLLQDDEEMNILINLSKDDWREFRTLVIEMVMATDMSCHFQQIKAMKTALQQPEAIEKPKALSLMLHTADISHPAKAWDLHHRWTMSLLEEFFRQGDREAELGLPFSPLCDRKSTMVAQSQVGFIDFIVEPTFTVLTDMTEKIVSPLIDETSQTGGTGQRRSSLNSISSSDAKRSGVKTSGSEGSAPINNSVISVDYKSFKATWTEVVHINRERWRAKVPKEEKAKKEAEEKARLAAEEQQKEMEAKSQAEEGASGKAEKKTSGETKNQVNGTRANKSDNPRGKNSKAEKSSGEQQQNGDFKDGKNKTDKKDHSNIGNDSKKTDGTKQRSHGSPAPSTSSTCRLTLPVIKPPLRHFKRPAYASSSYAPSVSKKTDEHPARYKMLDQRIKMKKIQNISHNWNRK
PTGS1: Prostaglandin G/H synthase 1 (PTGS1, Ovis aries, UniProt P05979)
UniProt P05979, sequence (whole entry, looked up): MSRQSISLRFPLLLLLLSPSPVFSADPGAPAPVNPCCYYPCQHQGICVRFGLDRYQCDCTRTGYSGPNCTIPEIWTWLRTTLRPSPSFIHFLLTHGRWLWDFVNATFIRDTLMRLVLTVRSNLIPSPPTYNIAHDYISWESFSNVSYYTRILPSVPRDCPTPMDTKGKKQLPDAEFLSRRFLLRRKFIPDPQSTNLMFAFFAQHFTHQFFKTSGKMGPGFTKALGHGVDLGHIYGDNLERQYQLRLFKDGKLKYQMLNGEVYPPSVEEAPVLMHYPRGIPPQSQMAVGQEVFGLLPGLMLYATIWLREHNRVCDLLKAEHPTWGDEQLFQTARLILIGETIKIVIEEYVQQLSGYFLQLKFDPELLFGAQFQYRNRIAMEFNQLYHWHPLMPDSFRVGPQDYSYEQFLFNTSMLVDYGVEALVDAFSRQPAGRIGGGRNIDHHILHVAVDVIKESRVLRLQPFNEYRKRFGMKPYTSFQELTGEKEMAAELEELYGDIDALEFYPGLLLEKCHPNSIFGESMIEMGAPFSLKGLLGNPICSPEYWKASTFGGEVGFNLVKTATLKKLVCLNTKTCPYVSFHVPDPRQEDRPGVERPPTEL
SNCA pre-formed fibrils: Alpha-synuclein, pre-formed fibrils (SNCA, Homo sapiens, UniProt P37840)
MAL12: Alpha-glucosidase MAL12 (MAL12, Saccharomyces cerevisiae S288c, UniProt P53341)
UniProt P53341, sequence (whole entry, looked up): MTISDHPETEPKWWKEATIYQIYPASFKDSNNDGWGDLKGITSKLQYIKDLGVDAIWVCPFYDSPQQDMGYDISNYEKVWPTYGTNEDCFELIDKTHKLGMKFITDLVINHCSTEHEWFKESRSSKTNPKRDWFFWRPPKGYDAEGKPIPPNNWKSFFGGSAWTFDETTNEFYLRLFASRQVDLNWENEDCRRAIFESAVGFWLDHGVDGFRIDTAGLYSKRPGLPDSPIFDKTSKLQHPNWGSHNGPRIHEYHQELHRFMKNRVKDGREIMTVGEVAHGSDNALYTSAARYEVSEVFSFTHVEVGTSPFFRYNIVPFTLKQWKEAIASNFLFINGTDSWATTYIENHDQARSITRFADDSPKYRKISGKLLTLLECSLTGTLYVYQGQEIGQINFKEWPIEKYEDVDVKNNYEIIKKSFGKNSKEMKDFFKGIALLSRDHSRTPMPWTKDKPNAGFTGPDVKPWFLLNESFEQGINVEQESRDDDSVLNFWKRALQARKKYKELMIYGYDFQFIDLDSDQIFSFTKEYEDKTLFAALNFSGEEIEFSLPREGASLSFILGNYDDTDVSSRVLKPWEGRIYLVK
DNA polymerase catalytic subunit: DNA polymerase catalytic subunit (Human cytomegalovirus, UniProt P08546)
UniProt P17858, sequence (whole entry, looked up): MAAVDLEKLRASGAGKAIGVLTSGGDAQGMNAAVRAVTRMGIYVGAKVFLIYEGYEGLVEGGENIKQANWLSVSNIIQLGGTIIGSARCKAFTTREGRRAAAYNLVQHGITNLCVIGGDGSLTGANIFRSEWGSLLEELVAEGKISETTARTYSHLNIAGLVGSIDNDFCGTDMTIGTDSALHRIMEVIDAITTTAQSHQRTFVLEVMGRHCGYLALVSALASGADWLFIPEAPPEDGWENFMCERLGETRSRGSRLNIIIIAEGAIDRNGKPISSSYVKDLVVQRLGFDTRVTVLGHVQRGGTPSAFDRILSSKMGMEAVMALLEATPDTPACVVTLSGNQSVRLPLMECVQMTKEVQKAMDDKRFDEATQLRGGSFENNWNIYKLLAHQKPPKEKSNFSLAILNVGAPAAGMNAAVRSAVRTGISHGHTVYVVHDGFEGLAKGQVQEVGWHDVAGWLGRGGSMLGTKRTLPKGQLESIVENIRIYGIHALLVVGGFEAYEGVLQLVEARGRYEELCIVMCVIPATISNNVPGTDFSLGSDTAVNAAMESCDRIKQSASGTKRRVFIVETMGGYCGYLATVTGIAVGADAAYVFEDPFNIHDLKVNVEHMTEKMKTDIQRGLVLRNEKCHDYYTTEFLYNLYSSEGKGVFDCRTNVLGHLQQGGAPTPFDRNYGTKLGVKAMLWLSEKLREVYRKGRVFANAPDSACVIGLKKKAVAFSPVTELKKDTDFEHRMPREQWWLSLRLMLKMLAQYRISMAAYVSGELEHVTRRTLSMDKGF
UniProt P08546, sequence (whole entry, looked up): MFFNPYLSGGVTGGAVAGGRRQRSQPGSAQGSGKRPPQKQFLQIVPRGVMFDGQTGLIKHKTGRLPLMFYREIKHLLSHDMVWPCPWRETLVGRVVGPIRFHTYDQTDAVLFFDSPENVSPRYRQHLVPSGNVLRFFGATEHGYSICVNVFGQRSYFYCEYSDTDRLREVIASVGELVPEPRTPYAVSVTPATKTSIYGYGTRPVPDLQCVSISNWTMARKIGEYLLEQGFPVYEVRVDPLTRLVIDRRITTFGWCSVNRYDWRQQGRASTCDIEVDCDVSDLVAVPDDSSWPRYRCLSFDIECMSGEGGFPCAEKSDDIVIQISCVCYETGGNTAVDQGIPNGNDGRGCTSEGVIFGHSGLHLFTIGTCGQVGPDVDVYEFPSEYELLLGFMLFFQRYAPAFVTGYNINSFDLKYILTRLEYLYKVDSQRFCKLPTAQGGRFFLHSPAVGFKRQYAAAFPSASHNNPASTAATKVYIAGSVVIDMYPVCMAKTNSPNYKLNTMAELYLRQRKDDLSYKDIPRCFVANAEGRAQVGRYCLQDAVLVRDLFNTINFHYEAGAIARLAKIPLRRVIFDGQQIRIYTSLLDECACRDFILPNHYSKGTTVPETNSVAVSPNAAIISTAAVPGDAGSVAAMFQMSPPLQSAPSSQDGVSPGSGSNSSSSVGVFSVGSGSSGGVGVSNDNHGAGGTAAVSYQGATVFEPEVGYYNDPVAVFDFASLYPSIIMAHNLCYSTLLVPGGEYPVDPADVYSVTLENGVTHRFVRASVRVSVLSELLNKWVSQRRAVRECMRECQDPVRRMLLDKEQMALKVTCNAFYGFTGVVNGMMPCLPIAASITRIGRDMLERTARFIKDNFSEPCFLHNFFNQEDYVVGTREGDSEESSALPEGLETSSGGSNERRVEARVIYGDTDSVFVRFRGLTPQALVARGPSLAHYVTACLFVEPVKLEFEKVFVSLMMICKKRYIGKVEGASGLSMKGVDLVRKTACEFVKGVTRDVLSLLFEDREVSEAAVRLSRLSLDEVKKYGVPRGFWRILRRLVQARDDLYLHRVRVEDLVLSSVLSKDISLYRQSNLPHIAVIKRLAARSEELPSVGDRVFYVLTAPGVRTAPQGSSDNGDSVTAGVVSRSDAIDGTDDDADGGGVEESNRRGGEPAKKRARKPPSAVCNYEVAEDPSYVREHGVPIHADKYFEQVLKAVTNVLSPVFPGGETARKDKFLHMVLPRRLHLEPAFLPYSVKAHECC
UniProt P00915, sequence (whole entry, looked up): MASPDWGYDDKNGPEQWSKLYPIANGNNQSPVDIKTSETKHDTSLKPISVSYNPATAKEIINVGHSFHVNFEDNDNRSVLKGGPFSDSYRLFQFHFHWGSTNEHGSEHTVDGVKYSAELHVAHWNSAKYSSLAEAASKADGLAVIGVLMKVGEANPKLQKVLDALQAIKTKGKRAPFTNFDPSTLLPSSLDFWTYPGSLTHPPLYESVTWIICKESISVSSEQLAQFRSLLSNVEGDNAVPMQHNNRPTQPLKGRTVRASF

SMILES = O=P(O)(O)O[C@H]1[C@H](OP(=O)(O)O)[C@@H](OP(=O)(O)O)[C@@H](O)[C@@H](O)[C@@H]1OP(=O)(O)O; target = Inositol-tetrakisphosphate 1-kinase (Homo sapiens, UniProt Q13572); test = enzyme activity, inhibitor; IC50 = 0.22 µM
SMILES = C[C@H](c1ccccc1)N1C(=O)C2=Nc3cccc(Cl)c3CN2C1=S; target = Tyrosine-protein kinase Fer (FER, Homo sapiens, UniProt P16591); test = enzyme activity, inhibitor; IC50 = 0.487 µM
SMILES = N#Cc1ccc(-c2cc(CN3c4ccccc4C=Cc4ccccc43)on2)cc1; target = Urease; test = enzyme activity, inhibitor; IC50 = 8.19 µM
SMILES = O=C(Nc1cc(-c2cccnc2)[nH]n1)c1ccccc1; target = crk3 with CYC6; test = enzyme activity, inhibitor, radiometric; conditions = added: Leishmania major CYC6 cyclin, 1 µM ATP; IC50 = 23 µM
SMILES = CCN(CC)CC(=O)Nc1cccc(-n2cc(-c3ccc4ccc(-c5cn(-c6cccc(NC(=O)CN(CC)CC)c6)nn5)cc4c3)nn2)c1; target = Vascular endothelial growth factor receptor 2 (KDR, Homo sapiens, UniProt P35968); test = enzyme activity, inhibitor; IC50 = > 10 µM
SMILES = CC(C)n1cc[nH]c1=S; target = SYK tandem SH2 domains; test = binding, inhibitor, TR-FRET; conditions = added: FITC-FCER1G phospho-ITAM peptide; IC50 = 9.7 ± 4.3 µM
SMILES = Cc1ccc(CNc2nc3c(cnn3C(C)(C)C)c(=O)n2Cc2cccc(F)c2)cn1; target = PDE1C; test = enzyme activity, inhibitor, radiometric; IC50 = 0.0045 µM
SMILES = CSc1ccc(NC(=O)c2cnn(-c3ccc([N+](=O)[O-])cc3)c2C(F)(F)F)cc1; target = PTGS1; test = enzyme activity, inhibitor; IC50 = 6.67 µM
SMILES = Clc1ccc(-c2cc(CN3c4ccccc4C=Cc4ccccc43)on2)cc1; target = Urease; test = enzyme activity, inhibitor; IC50 = 7.32 µM
SMILES = CC(C)C[C@H](NC(=O)[C@H](Cc1ccc(CN)cc1)NC(=O)[C@H](Cc1ccccc1)N=[N+]=[N-])C(=O)N[C@@H](CC1CC2CCC1C2)C(=O)[C@@]1(C)CO1 (stereo in doubt); target = Proteasome subunit beta type-10 (Homo sapiens, UniProt P40306); test = inhibitor, biochemical; IC50 = 3.12 µM
SMILES = O=S(=O)(c1ccc2c(c1)OCO2)n1cc(CCCCN2CCC(=C(c3ccc(F)c(F)c3)c3ccc(F)c(F)c3)CC2)nn1; target = ATP-dependent 6-phosphofructokinase, liver type (PFKL, Homo sapiens, UniProt P17858); test = probe labelling, competitive gel-based ABPP; system = HEK293T; IC50 = 0.141 µM
SMILES = Cn1c(=O)c2[nH]cnc2n(C)c1=O; target = SYK tandem SH2 domains; test = binding, inhibitor, TR-FRET; conditions = added: FITC-FCER1G phospho-ITAM peptide; IC50 = > 100 µM
SMILES = Fc1ccc(Nc2nc(NC3CCCCC3)c3ccccc3n2)cc1F; target = Beta-2 adrenergic receptor (ADRB2, Homo sapiens, UniProt P07550, N148A); test = β-arrestin2 recruitment, antagonist, BRET; system = HEK293; conditions = mutant N148A, added: isoprenaline 1 µM; IC50 = 1.58 µM
SMILES = CC(C)(C)n1ncc2c(=O)n(Cc3cccc(F)c3)c(NCC3CCCCC3)nc21; target = PDE1C; test = enzyme activity, inhibitor, radiometric; IC50 = 0.0237 µM
SMILES = Cc1cc(C)nc(NC(=S)N2CCN(c3ccncc3)CC2)c1; target = Peroxisomal multifunctional enzyme type 2 (HSD17B4, Homo sapiens, UniProt P51659); test = enzyme activity, inhibitor; IC50 = > 57 µM
SMILES = Nc1ncc2c(n1)-c1c([nH]c3ccc(C#CC4CC4)cc13)CCCC2; target = Serine/threonine-protein kinase PAK 2 (PAK2, Homo sapiens, UniProt Q13177); test = enzyme activity, inhibitor, radiometric; IC50 = > 10 µM
SMILES = CN1CCN(c2ccc3cc(COC(=O)Nc4cccc(C(=O)NO)c4)ccc3c2)CC1; target = SNCA pre-formed fibrils; test = binding to mouse LAG3 D1, inhibitor, ELISA; conditions = added: FLAG-α-syn PFFs 100 nM; IC50 = 0.535 µM
SMILES = N[C@@H](CCC(=O)N[C@@H](CS[Se]Cc1ccc(-c2cccc(C(O)c3ccc(Cl)c(Cl)c3)c2)cc1)C(=O)NCC(=O)O)C(=O)O (stereo partly drawn); target = Tyrosine-protein phosphatase non-receptor type 2 (PTPN2, Homo sapiens, UniProt P17706); test = enzyme activity, inhibitor; conditions = added: pNPP, GSH 1 mM; IC50 = 40.2 µM
SMILES = CN1CCN(c2ccc3cc(NC(=O)Nc4cccc(C(=O)NO)c4)ccc3c2)CC1; target = SNCA pre-formed fibrils; test = binding to RAGE, inhibitor, ELISA; conditions = added: FLAG-α-syn PFFs 100 nM; IC50 = 4.9 µM
SMILES = Brc1cnn2ccc(Nc3ccc(N4CCOCC4)cc3)nc12; target = crk3 with CYC6; test = enzyme activity, inhibitor, radiometric; conditions = added: Leishmania major CYC6 cyclin, 1 µM ATP; IC50 = 10 µM
SMILES = Cc1cc(-c2ccc(S(=O)(=O)C3CC(C(=O)NC4(C#N)CC4)N(C(=O)C4(C(F)(F)F)CC4)C3)c(C(F)(F)F)c2)ccn1 (stereo not drawn); target = Calpain-1 catalytic subunit (CAPN1, Homo sapiens, UniProt P07384); IC50 = > 10 µM
SMILES = Cc1ccc(-c2cc(CN3c4ccccc4C=Cc4ccccc43)on2)cc1; target = Urease; test = enzyme activity, inhibitor; IC50 = > 27 µM
SMILES = CC(C)(C)n1ncc2c(=O)n(Cc3cccc(F)c3)c(NCc3cc(Cl)ccn3)nc21; target = PDE1C; test = enzyme activity, inhibitor, radiometric; IC50 = 0.0009 µM
SMILES = O=C(Nc1cc(C2CC2)[nH]n1)C1CCC1; target = crk3 with CYC6; test = enzyme activity, inhibitor, radiometric; conditions = added: Leishmania major CYC6 cyclin, 1 µM ATP; IC50 = 2.1 µM
SMILES = COc1cc(O)c2c(c1)CCC21C=CC(=O)CC1 (stereo not drawn); target = rat intestinal maltase; test = inhibitor; system = rat intestinal acetone powder; conditions = 10 min, 37 °C, added: maltose 10 mM; IC50 = 1020 ± 90 µM
SMILES = CC(C)C[C@H](NC(=O)[C@@H](NC(=O)[C@H](Cc1ccccc1)NC(=O)c1ccc(C(C)(C)C)cc1)C(C)(C)C)C(=O)N[C@@H](CCCCN(C)C1CC2CCC1C2)C(=O)N[C@@H](CO)C(N)=O (stereo partly drawn); target = Chromobox protein homolog 7 (Homo sapiens, UniProt O95931); test = ligand displacement, TR-FRET; IC50 = > 30 µM
SMILES = COc1cc(C(c2c(O)c3ccccc3oc2=O)c2c(O)c3ccccc3oc2=O)ccc1OCc1cn(CC(=O)Nc2ccccc2Br)nn1; target = MAL12; test = enzyme activity, inhibitor; IC50 = 28.8 µM
SMILES = Cn1cc(-c2ccc3cc(NC(=O)Nc4cccc(C(=O)NO)c4)ccc3c2)cn1; target = SNCA pre-formed fibrils; test = binding to RAGE, inhibitor, ELISA; conditions = added: FLAG-α-syn PFFs 100 nM; IC50 = 6.21 µM
SMILES = CC1(C)C(=O)N=C2C1=C(O)C(=O)c1ccccc12; target = Histone-lysine N-methyltransferase SETD2 (SETD2, Homo sapiens, UniProt Q9BYW2); test = enzyme activity, inhibitor; IC50 = 1 µM
SMILES = CC1CC=CCCC=CC(=O)Cc2cc(O)cc(O)c2C(=O)O1 (stereo not drawn); target = Mitogen-activated protein kinase kinase kinase 7 (MAP3K7, Homo sapiens, UniProt O43318); test = enzyme activity, inhibitor, ATP luminescence; IC50 = > 10 µM
SMILES = CC(C)(COC(=O)/C=C/c1ccc2c(c1)OCO2)CC1=C(O)C(=O)c2ccccc2C1=O; target = MAL12; test = enzyme activity, inhibitor; IC50 = 28.8 µM
SMILES = O=C(Nc1cc(C2CC2)[nH]n1)c1ccccc1; target = crk3 with CYC6; test = enzyme activity, inhibitor, radiometric; conditions = added: Leishmania major CYC6 cyclin, 1 µM ATP; IC50 = 1.7 µM
SMILES = Cc1ccc(NS(=O)(=O)c2c(C)[nH]c(C)c2C(=O)N2CCCC2)cc1; target = D(2) dopamine receptor (DRD2, Homo sapiens, UniProt P14416); IC50 = > 100 µM
SMILES = CN1CCC(n2cc(-c3cccc4cc(NC(=O)Nc5ccc(C(=O)NO)cc5)ccc34)cn2)CC1; target = SNCA pre-formed fibrils; test = binding to mouse LAG3 D1, inhibitor, ELISA; conditions = added: FLAG-α-syn PFFs 100 nM; IC50 = 1.04 µM
SMILES = Cn1c(=O)c2c(nc(S)n2C)n(C)c1=O; target = SYK tandem SH2 domains; test = binding, inhibitor, TR-FRET; conditions = added: FITC-FCER1G phospho-ITAM peptide; IC50 = 3.57 ± 0.2 µM
SMILES = CC1(F)CN(C(=O)Cn2c(=O)c(C(=O)NCc3ccc(Cl)cc3)cc3nc(N4CCN(CCN)C4=O)cnc32)C1; target = DNA polymerase catalytic subunit; test = enzyme activity; conditions = at least duplicate; IC50 = 0.33 µM
SMILES = COc1cc(OC)c(/N=N/c2ccc(C(=O)NO)c(C(F)(F)F)c2)c(OC)c1; target = Urease; test = enzyme activity, inhibitor, absorbance; conditions = pH 7.3; IC50 = > 512 µM
SMILES = CCOc1cc(CN2CC3(CC(N4CCC(C(=O)O)CC4)=NO3)C2)cc(OCC)c1-c1ccc(F)cc1; target = Somatostatin receptor type 5 (SSTR5, Homo sapiens, UniProt P35346, Q99A); test = cAMP level, antagonist, GloSensor; system = AD293; conditions = Q99A mutant, bandwidth 2.63, added: CST17 EC80 and forskolin; IC50 = 2.19 µM
SMILES = COc1cc(OC)c2c(=O)cc(-c3cc(C)c(OCCCN4CCN(C)CC4)c(C)c3)oc2c1; target = Bromodomain testis-specific protein, BD2 (BRDT, Homo sapiens, UniProt Q58F21); test = cell-free assay, TR-FRET; IC50 = 2.21 µM
SMILES = Cc1nn(-c2cccc(N)c2)c(=O)c2cnc(Nc3ccc(N4CCNCC4)cc3)nc12; target = Platelet-derived growth factor receptor beta (PDGFRB, Homo sapiens, UniProt P09619); test = enzyme activity, inhibitor; IC50 = 2.23 µM
SMILES = O=C(COC(=O)c1ccccc1Nc1cccc(C(F)(F)F)c1)Nc1cccc(C(F)(F)F)c1; target = PTGS1; test = enzyme activity, inhibitor; IC50 = 99.9 µM
SMILES = CN1CCCN(c2cnc3c(cc(C(=O)NCc4ccc(Cl)cc4)c(=O)n3CC(=O)N3CC(C)(F)C3)n2)C1=O; target = DNA polymerase catalytic subunit; test = enzyme activity; conditions = at least duplicate; IC50 = 4.1 µM
SMILES = CC(=O)N1c2ccc(-c3ccc(CNC(=O)c4cn5cc(-c6cnc(N)nc6)nc(N6CCOCC6)c5n4)cc3)cc2CC[C@@H]1C; target = Serine-protein kinase ATM (ATM, Homo sapiens, UniProt Q13315); test = enzyme activity, inhibitor, radiometric; IC50 = > 10 µM
SMILES = O=C(Cc1ccc(OCc2ccccc2)cc1)NC1(C(=O)O)CCN(C(=O)c2ccc(-c3cccc(Cl)c3)cc2)CC1; target = Sphingosine 1-phosphate receptor 1 (S1PR1, Homo sapiens, UniProt P21453); test = antagonist, GloSensor cAMP; IC50 = > 10 µM
SMILES = CN1C=C(C(N)=O)[C@@H]2C[C@H](O)[C@@](NC(=O)CS(N)(=O)=O)(C(=O)O)[C@@H]2C1; target = Carbonic anhydrase 1 (CA1, Homo sapiens, UniProt P00915); test = enzyme activity, inhibitor, absorbance; IC50 = 25 µM
SMILES = CCn1nc(Cl)c2c1-c1cnc(N)c(c1)O[C@H](C)c1cc(F)ccc1-c1nn(C)cc1C2; target = Protein-tyrosine kinase 2-beta (PTK2B, Homo sapiens, UniProt Q14289); test = enzyme activity, inhibitor, radiometric; IC50 = 0.014 µM
SMILES = Fc1ccccc1-c1cc(CN2c3ccccc3C=Cc3ccccc32)on1; target = Urease; test = enzyme activity, inhibitor; IC50 = 11.9 µM
SMILES = N=C(NCC[C@H](NC(=O)c1noc(-c2cc(F)ccc2F)n1)c1nc2ccccc2[nH]1)c1ccc([N+](=O)[O-])o1; target = Stimulator of interferon genes protein (STING1, Homo sapiens, UniProt Q86WV6, H232R); test = reporter gene; IC50 = 1.7 µM
